Published values of several laboratories.
Lines come from different studies, so protocols differ. ± gives the spread as reported.

CCCC[C@H](NC(=O)CCCCCCCNC(=O)c1ccc(NN)nc1)C(=O)N[C@H]1CC(=O)NCCCC[C@@H](C(N)=O)NC(=O)[C@H](Cc2c[nH]c3ccccc23)NC(=O)[C@H](CCCNC(=N)N)NC(=O)[C@@H](Cc2ccccc2)NC(=O)[C@H](Cc2c[nH]cn2)NC1=O [technetium-99m labelled]
biodistribution (C57 mice, B16/F1 melanoma, intestines; concentration not given, 2 h, together with: 12 mg L-lysine): 1.64 ± 0.4 %ID

N=C(N)NCCC[C@@H]1NC(=O)[C@H](CCCCNC(=O)CNC(=O)CNC(=O)CNC(=O)CC[C@H](NC(=O)CCOCCOCCOCCOCCNC(=O)CC[C@H](NC(=O)CN2CCN(CC(=O)O)CCN(CC(=O)O)CCN(CC(=O)O)CC2)C(=O)NCCOCCOCCOCCOCCC(=O)N[C@@H](CCC(=O)NCC(=O)NCC(=O)NCC(=O)NCCCC[C@@H]2NC(=O)[C@@H](Cc3ccccc3)NC(=O)[C@H](CC(=O)O)NC(=O)CNC(=O)[C@H](CCCNC(=N)N)NC2=O)C(=O)NCC(=O)NCC(=O)NCC(=O)NCCCC[C@@H]2NC(=O)[C@@H](Cc3ccccc3)NC(=O)[C@H](CC(=O)O)NC(=O)CNC(=O)[C@H](CCCNC(=N)N)NC2=O)C(=O)NCC(=O)NCC(=O)NCC(=O)NCCCC[C@@H]2NC(=O)[C@@H](Cc3ccccc3)NC(=O)[C@H](CC(=O)O)NC(=O)CNC(=O)[C@H](CCCNC(=N)N)NC2=O)NC(=O)[C@@H](Cc2ccccc2)NC(=O)[C@H](CC(=O)O)NC(=O)CNC1=O [indium-111 labelled]
tumour to tissue ratio (athymic nude mice, female, U-87 MG glioma xenograft, tumour and blood; intravenous, 24 h; reference: tumour over blood): 266 ± 59

C[C@@H](O)[C@H](NC(=O)[C@@H]1CSSC[C@H](NC(=O)[C@@H](Cc2ccccc2)NC(=O)CN2CCCN3CCN(CCCN(CP(=O)(O)O)CC3)CC2)C(=O)N[C@@H](Cc2ccc(O)cc2)C(=O)N[C@H](Cc2c[nH]c3ccccc23)C(=O)N[C@@H](CCCCN)C(=O)N[C@@H]([C@@H](C)O)C(=O)N1)C(=O)O [copper-64 labelled]
tissue uptake (male Lewis rat, pituitary; 0.74 MBq, 4 h): 7.5 ± 1.1 %ID/g

CSCC[C@H](NC(=O)[C@H](CC(C)C)NC(=O)[C@H](Cc1c[nH]cn1)NC(=O)CNC(=O)[C@@H](NC(=O)[C@H](C)NC(=O)[C@H](Cc1c[nH]c2ccccc12)NC(=O)[C@H](CCC(N)=O)NC(=O)CCCCNC(=O)CSCCSCCP(CO)CO)C(C)C)C(N)=O [technetium-99m labelled]
urinary excretion (female CF-1 mouse, urine; intravenous, dose not given, 1 h): 20.3%

Cc1ncsc1-c1ccc(CNC(=O)[C@@H]2C[C@@H](OC(=O)OCCSSCCn3cc(CCCC(=O)N[C@@H](Cc4ccc(O)cc4)C(=O)N[C@@H](CCCNC(=N)N)C(=O)N[C@@H](CCCNC(=N)N)C(=O)N[C@@H](CCCNC(=N)N)C(=O)N[C@@H](CCCNC(=N)N)C(=O)N[C@@H](CCCNC(=N)N)C(=O)N[C@@H](CCCNC(=N)N)C(=O)N[C@@H](CCCNC(=N)N)C(=O)N[C@@H](CCCNC(=N)N)C(=O)N[C@@H](CCCNC(=N)N)C(N)=O)nn3)CN2C(=O)[C@@H](NC(=O)COCCOCCOCCNC(=O)C[C@@H]2N=C(c3ccc(Cl)cc3)c3c(sc(C)c3C)-n3c(C)nnc32)C(C)(C)C)cc1
released payload (UHPLC; PBS; 100 nM, 1 h, 37 °C, together with: 5 mM glutathione; reference: total peak area): 100%

CC(C)C[C@@H]1NC(=O)[C@H](C(C)C)NC(=O)[C@H](CO)NC(=O)CNC(=O)CNC(=O)[C@H](CCCNC(=N)N)NC(=O)[C@@H]2CCCN2C(=O)[C@@H](NC(=O)CC[C@H](NC(=O)c2ccc(N(C)Cc3cnc4nc(N)nc(N)c4n3)cc2)C(=O)O)C(C)(C)SSC[C@@H](C(=O)O)NC(=O)CNC(=O)[C@H]([C@@H](C)O)NC(=O)[C@H](C(C)C)NC1=O
pKa carboxylic acid (pH-rate profile inflection; 70 °C): 3.9

CSCC[C@H](NC(=O)[C@H](CC(C)C)NC(=O)[C@H](Cc1c[nH]cn1)NC(=O)CNC(=O)[C@@H](NC(=O)[C@H](C)NC(=O)[C@H](Cc1c[nH]c2ccccc12)NC(=O)[C@H](CCC(N)=O)NC(=O)CCCCCNC(=O)CNC(=O)CNC(=O)CNC(=O)CSC(C)=O)C(C)C)C(N)=O [technetium-99m labelled]
tissue uptake (nude mouse, PC-3 xenograft, muscle; 30 min): 0.27 ± 0.09 %ID/g

CCCC[C@H](NC(=O)CNC(=O)CNC(=O)c1ccc(NN)nc1)C(=O)N[C@H]1CC(=O)NCCCC[C@@H](C(N)=O)NC(=O)[C@H](Cc2c[nH]c3ccccc23)NC(=O)[C@H](CCCNC(=N)N)NC(=O)[C@@H](Cc2ccccc2)NC(=O)[C@H](Cc2c[nH]cn2)NC1=O [technetium-99m labelled]
uptake (C57 mouse, B16/F1 melanoma, lung; 2 h, together with: L-lysine 12 mg): 0.17 ± 0.02 %ID/g

N=C(N)NCCC[C@@H]1NC(=O)[C@H](CCCCNC(=O)CCOCCOCCOCCOCCNC(=O)CC[C@H](NC(=O)CCOCCOCCOCCOCCNC(=O)CC[C@H](NC(=O)CN2CCN(CC(=O)O)CCN(CC(=O)O)CCN(CC(=O)O)CC2)C(=O)NCCOCCOCCOCCOCCC(=O)N[C@@H](CCC(=O)NCCOCCOCCOCCOCCC(=O)NCCCC[C@@H]2NC(=O)[C@@H](Cc3ccccc3)NC(=O)[C@H](CC(=O)O)NC(=O)CNC(=O)[C@H](CCCNC(=N)N)NC2=O)C(=O)NCCOCCOCCOCCOCCC(=O)NCCCC[C@@H]2NC(=O)[C@@H](Cc3ccccc3)NC(=O)[C@H](CC(=O)O)NC(=O)CNC(=O)[C@H](CCCNC(=N)N)NC2=O)C(=O)NCCOCCOCCOCCOCCC(=O)NCCCC[C@@H]2NC(=O)[C@@H](Cc3ccccc3)NC(=O)[C@H](CC(=O)O)NC(=O)CNC(=O)[C@H](CCCNC(=N)N)NC2=O)NC(=O)[C@@H](Cc2ccccc2)NC(=O)[C@H](CC(=O)O)NC(=O)CNC1=O [indium-111 labelled]
tissue uptake (female athymic nude mice, muscle; intravenous, 3 µCi, 24 h, U-87 MG glioma xenograft): 0.52 ± 0.05 %ID/g

N=C(N)NCCC[C@@H]1NC(=O)[C@H](CC(=O)NC23CNCCNCC(N)(CNCCNC2)CNCCNC3)NC(=O)[C@@H](Cc2ccccc2)NC(=O)[C@H](CC(=O)O)NC(=O)CNC1=O [copper-64 labelled]
tissue uptake (Nu/Nu mouse, male, tumour-bearing, muscle; intravenous, 10 µCi, 24 h): 0.13 ± 0.03 %ID/g

N=C(N)NCCC[C@@H]1NC(=O)[C@H](CCCCNC(=O)CCOCCOCCOCCOCCNC(=O)CN2CCN(CC(=O)O)CCN(CC(=O)O)CCN(CC(=O)O)CC2)NC(=O)[C@@H](Cc2ccccc2)NC(=O)[C@H](CC(=O)O)NC(=O)CNC1=O [indium-111 labelled]
tumour to tissue ratio (athymic nude mice, female, U-87 MG glioma xenograft, tumour and lungs; intravenous, 72 h; reference: tumour over lungs): 4.66 ± 1.02

CC(C)C[C@H](NC(=O)[C@@H]1CCCN1C(=O)[C@H](CCCCN)NC(=O)[C@@H](N)CO)C(=O)N1CCC[C@H]1C(=O)N[C@@H](CCC(=O)O)C(=O)N[C@H](C(=O)N[C@H](C(=O)N[C@@H](CC(=O)O)C(=O)N[C@@H](CCC(=O)O)C(=O)N[C@@H](Cc1ccc(O)cc1)C(=O)N[C@@H](Cc1cn(CCOCCOCCOCCNC(=O)CCc2ccc(O)c(CN(CCN(CC(=O)O)Cc3cc(CCC(=O)NCCCC[C@H](NC(=O)N[C@@H](CCC(=O)O)C(=O)O)C(=O)O)ccc3O)CC(=O)O)c2)nn1)C(=O)O)[C@@H](C)O)C(C)C [gallium-68 labelled]
standardized uptake value (NMRI nu/nu mice, LNCaP tumour, adrenals; 135.34 nmol/kg, low molar activity): 0.24 g/g

N=C(N)NCCC[C@@H]1NC(=O)[C@H](CCCCNC(=O)CC[C@H](NC(=O)CCOCCOCCOCCOCCNC(=O)CC[C@H](NC(=O)CN2CCN(CC(=O)O)CCN(CC(=O)O)CCN(CC(=O)O)CC2)C(=O)NCCOCCOCCOCCOCCC(=O)N[C@@H](CCC(=O)NCCCC[C@@H]2NC(=O)[C@@H](Cc3ccccc3)NC(=O)[C@H](CC(=O)O)NC(=O)CNC(=O)[C@H](CCCNC(=N)N)NC2=O)C(=O)NCCCC[C@@H]2NC(=O)[C@@H](Cc3ccccc3)NC(=O)[C@H](CC(=O)O)NC(=O)CNC(=O)[C@H](CCCNC(=N)N)NC2=O)C(=O)NCCCC[C@@H]2NC(=O)[C@@H](Cc3ccccc3)NC(=O)[C@H](CC(=O)O)NC(=O)CNC(=O)[C@H](CCCNC(=N)N)NC2=O)NC(=O)[C@@H](Cc2ccccc2)NC(=O)[C@H](CC(=O)O)NC(=O)CNC1=O [indium-111 labelled]
tumour to tissue ratio (athymic nude mice, female, U-87 MG glioma xenograft, tumour and blood; intravenous, 72 h; reference: tumour over blood): 192 ± 172

CCCC[C@H](NC(=O)COCCOCCNC(=O)c1ccc(NN)nc1)C(=O)N[C@H]1CC(=O)NCCCC[C@@H](C(N)=O)NC(=O)[C@H](Cc2c[nH]c3ccccc23)NC(=O)[C@H](CCCNC(=N)N)NC(=O)[C@@H](Cc2ccccc2)NC(=O)[C@H](Cc2c[nH]cn2)NC1=O [technetium-99m labelled]
excreted dose (C57 mouse, female, B16/F1 melanoma, urine; intravenous, 0.037 MBq, 2 h): 93.2 ± 1.91%

Repeated from above:
CC(C)C[C@@H]1NC(=O)[C@H](C(C)C)NC(=O)[C@H](CO)NC(=O)CNC(=O)CNC(=O)[C@H](CCCNC(=N)N)NC(=O)[C@@H]2CCCN2C(=O)[C@@H](NC(=O)CC[C@H](NC(=O)c2ccc(N(C)Cc3cnc4nc(N)nc(N)c4n3)cc2)C(=O)O)C(C)(C)SSC[C@@H](C(=O)O)NC(=O)CNC(=O)[C@H]([C@@H](C)O)NC(=O)[C@H](C(C)C)NC1=O
pKa carboxylic acid (pH-rate profile inflection; 70 °C): 3.9
